Values quoted from earlier work, collected from citations in different studies.
Lines come from different studies, so protocols differ.
CA2: Carbonic anhydrase 2 (CA2, Homo sapiens, UniProt P00918)
UniProt P25090, sequence (whole entry, looked up): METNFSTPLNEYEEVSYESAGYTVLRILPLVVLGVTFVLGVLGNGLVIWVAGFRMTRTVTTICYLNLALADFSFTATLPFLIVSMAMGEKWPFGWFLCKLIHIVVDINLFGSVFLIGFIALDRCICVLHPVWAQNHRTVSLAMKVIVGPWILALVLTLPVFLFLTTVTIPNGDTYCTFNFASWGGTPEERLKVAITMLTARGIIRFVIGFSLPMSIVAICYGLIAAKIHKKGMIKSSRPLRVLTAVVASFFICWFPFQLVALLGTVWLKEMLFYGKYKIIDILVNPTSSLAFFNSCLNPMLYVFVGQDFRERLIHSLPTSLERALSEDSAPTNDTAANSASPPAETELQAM
UniProt Q9UM73, sequence (whole entry, looked up): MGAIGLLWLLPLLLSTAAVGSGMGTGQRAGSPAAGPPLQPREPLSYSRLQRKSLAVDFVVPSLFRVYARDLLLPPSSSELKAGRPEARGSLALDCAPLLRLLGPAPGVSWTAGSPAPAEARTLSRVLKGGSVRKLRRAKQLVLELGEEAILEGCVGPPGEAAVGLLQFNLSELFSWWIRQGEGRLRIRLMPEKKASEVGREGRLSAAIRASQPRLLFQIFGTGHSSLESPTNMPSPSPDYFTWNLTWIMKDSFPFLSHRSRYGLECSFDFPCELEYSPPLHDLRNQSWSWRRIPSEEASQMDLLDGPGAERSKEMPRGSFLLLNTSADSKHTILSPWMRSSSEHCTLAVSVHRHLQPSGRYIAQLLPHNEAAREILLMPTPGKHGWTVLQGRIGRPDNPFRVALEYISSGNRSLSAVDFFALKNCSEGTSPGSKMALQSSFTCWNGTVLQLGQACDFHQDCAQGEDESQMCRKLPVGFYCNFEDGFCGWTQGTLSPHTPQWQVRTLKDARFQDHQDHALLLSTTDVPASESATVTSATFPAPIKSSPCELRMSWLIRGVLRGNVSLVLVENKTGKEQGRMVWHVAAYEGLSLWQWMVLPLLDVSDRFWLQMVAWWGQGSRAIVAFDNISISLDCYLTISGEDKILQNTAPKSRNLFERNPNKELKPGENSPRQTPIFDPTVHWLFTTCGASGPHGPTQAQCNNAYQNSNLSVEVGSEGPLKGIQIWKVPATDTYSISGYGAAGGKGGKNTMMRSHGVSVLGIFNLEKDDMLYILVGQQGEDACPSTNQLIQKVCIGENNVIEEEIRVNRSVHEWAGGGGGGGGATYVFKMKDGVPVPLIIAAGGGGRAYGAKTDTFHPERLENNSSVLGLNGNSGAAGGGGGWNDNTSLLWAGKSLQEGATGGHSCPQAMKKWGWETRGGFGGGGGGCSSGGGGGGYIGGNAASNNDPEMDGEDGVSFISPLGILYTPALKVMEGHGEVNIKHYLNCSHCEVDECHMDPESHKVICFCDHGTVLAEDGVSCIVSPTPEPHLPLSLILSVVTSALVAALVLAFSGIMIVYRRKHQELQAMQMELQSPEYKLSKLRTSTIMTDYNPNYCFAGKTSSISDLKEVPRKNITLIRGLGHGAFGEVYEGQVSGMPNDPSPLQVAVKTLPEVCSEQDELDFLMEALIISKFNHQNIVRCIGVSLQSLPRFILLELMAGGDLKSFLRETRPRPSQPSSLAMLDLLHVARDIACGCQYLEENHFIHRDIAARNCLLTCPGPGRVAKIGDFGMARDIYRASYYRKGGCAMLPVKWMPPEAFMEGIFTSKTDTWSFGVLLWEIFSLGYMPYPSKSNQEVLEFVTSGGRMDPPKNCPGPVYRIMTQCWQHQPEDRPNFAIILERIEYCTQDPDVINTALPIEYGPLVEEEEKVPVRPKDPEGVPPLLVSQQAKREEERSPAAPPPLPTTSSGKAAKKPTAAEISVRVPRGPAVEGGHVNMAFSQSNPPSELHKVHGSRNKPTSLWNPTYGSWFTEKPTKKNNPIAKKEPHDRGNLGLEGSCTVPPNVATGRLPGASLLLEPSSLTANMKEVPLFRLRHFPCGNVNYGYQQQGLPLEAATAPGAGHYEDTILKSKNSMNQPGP
UniProt Q9HC35, sequence (whole entry, looked up): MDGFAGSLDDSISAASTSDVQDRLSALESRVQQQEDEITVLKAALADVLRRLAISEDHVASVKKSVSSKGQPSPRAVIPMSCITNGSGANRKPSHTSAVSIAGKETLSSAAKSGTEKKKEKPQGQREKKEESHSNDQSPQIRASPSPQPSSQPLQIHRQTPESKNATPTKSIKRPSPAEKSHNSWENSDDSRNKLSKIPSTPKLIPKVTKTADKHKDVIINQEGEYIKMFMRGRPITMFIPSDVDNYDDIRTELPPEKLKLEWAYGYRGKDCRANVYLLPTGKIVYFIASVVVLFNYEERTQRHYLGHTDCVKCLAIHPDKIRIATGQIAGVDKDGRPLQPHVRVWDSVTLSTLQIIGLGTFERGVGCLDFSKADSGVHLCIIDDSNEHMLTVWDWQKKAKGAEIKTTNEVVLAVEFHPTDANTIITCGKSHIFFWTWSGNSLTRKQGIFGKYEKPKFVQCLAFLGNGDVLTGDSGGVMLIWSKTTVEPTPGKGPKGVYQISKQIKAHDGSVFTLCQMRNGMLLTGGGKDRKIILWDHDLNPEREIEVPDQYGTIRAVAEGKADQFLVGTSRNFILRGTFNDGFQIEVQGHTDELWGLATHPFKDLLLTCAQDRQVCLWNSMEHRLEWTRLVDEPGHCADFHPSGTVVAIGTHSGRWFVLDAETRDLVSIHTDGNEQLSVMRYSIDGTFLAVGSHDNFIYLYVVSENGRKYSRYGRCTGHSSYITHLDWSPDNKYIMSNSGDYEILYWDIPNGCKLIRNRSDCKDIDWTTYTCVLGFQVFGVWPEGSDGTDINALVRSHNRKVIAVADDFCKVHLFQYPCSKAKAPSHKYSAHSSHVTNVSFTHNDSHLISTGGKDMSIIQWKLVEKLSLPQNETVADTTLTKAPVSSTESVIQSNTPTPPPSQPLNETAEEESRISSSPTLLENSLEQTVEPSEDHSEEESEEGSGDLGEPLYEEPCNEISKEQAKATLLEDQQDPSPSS
UniProt Q16740, sequence (whole entry, looked up): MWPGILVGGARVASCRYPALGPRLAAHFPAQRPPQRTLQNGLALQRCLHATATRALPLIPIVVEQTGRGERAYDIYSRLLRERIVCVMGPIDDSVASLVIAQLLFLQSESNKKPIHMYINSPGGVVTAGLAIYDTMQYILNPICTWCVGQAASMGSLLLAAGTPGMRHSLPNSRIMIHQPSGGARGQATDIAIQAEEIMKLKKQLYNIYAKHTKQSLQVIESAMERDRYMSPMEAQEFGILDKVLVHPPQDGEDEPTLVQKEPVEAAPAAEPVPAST
UniProt Q6W5P4, sequence (whole entry, looked up): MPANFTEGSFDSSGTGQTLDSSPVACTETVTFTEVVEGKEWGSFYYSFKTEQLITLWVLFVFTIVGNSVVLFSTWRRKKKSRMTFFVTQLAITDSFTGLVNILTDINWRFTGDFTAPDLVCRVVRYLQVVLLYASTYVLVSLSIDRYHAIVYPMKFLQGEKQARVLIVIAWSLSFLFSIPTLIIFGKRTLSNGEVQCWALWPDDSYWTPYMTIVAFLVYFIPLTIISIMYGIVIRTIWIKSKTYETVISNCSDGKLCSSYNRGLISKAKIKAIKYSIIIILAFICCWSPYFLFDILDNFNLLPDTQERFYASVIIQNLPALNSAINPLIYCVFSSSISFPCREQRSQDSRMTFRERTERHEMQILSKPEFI

SMILES | target | test | test system | setting | quantity | value
CCCCC[C@H](O)/C=C/C=C\C=C\C=C\[C@@H](O)[C@@H](O)CCCC(=O)O | FPR2 (Homo sapiens, UniProt P25090) | monocyte adherence, agonist |  |  | EC50 | ~0.8 nM
NS(=O)(=O)c1c(F)c(F)c(SCCO)c(NC(c2ccccc2)C(O)c2ccccc2)c1F (stereo not shown) | CA2 | thermal shift |  | pH 7.0, 37 °C | Kd | 64 nM
O=C1C2=C(CCN(Cc3ccccc3)C2)N2CCN=C2N1Cc1ccc(C(F)(F)F)cc1 | CLPP (Homo sapiens, UniProt Q16740) | enzyme activity |  |  | EC50 | 130 nM
COc1ccc2nc3cc(Cl)ccc3c(NCCCCNc3nc(N)nc(N)n3)c2c1 | RNA repeat r(CUG)4 | binding |  |  | Kd | 430 nM
NS(=O)(=O)c1c(F)c(F)cc(F)c1N[C@H]1CCCc2ccccc21 | CA2 | thermal shift |  | pH 7.0, 37 °C | Kd | 2200 nM
Nc1c2ncn3c2nc[n+]1[C@@H]1C[C@H](COP(=O)(O)OP(=O)([O-])OC[C@H]2O[C@@H]3[C@H](O)[C@@H]2O)[C@@H](O)[C@H]1O | cADPR receptor (sea urchin) | agonist | sea urchin egg homogenate |  | EC50 | 79 nM
N=C(N)NCCC[C@H](NC(=O)[C@H](Cc1ccccc1)NC(=O)[C@@H](N)CO)C(=O)N[C@@H](CC(N)=O)C(=O)NCC(N)=O | NPSR1 (Homo sapiens, UniProt Q6W5P4) | calcium mobilization, agonist |  | receptor variant | EC50 | > 2000 nM
COc1ccc(Oc2ccc(NC(=O)N(C)C)cc2)cc1 | melatonin receptor 1B | agonist |  |  | EC50 | 14000 nM
COc1cc(N2CCN(C(=O)CCOCCOCCOCCNC(=O)CN)CC2)ccc1Nc1ncc(Cl)c(Nc2ccccc2P(C)(C)=O)n1 | ALK tyrosine kinase receptor/Echinoderm microtubule-associated protein-like 4 (Homo sapiens, UniProt Q9HC35+Q9UM73) | degrader | H3122 |  | DC50 | 500 nM
NS(=O)(=O)c1c(F)c(F)c(S(=O)(=O)CCO)c(N[C@H]2CCc3ccccc32)c1F | CA2 | thermal shift |  | pH 7.0, 37 °C | Kd | 17 nM
Nc1c2ncn3c2nc[n+]1[C@@H]1O[C@H](COP(=O)(O)OP(=O)([O-])OC[C@H]2O[C@@H]3[C@H](O)[C@@H]2O)[C@@H](O)[C@H]1O | cADPR receptor, sea urchin | Ca2+ release, agonist | sea urchin egg homogenate |  | EC50 | 32 nM
NS(=O)(=O)c1c(F)c(NCCc2ccc(O)cc2)c(SCCO)c(NC2CCCCCCCCCCC2)c1F | CA2 | thermal shift |  | pH 7.0, 37 °C | Kd | > 200000 nM
CC(=O)[C@@]1(O)CC[C@H]2[C@@H]3CCC4=CC(=O)CC[C@]4(C)[C@H]3CC[C@@]21C | glucocorticoid receptor | agonist |  |  | EC50 | 7140 nM
